Results collected from several papers.
Every numbered part comes from another study and shows a few of its results, in no order. Several values in a cell are separate wells, animals, samples, runs or records.

Study 1
Target: Fragile X messenger ribonucleoprotein 1, C-terminal low-complexity region (Fmr1, Mus musculus, UniProt P35922)
Technique: RNA Bind-n-Seq
Form: RNA
Matrix: in vitro
Tested at: 200 nM
Setting: whole 134-nt RNA, ends assumed
With: 150 mM KCl
Reference: input library
Reading: higher = stronger binding
Endpoint: log2 enrichment
All sequences stand within: GGGAGUUCUACAGUCCGACGAUC … UGGAAUUCUCGGGUGUCAAGG
UAACUUUAGAGGAGGAUCUGAUGGAUAUGGCAGUGGACGUGUAUUUGGGGAUGGCUAUAAUGGGUAUGGAGGAGGACCUGGAGGUGGCAA: 0.2
CACAGACAACACGCACCCACACAGACAAAAAGGGAAGGGGUUGGGAUGGGGACAGGGUGCACAGCAGGGCGGGGUAGGACCCCAGCCCCU: 1.19
GCAGGAAGUAAAAACAAAUGGAAAUGCUUCGGAUAGUGGCAGGGGUGGAGGUUGCUAAGGAAAGGGUGGGAUGGGAGUGGGUAAAGAGUU: 0.239
AUGUUCUUGAAUACUUAGCAAACAUACCAGCAUCCCAAAGUCACCAAGAUAAACCCUCCUACUCCAACAUCACAUGAUCUUCUAAUUCUA: 0.132
UGGGAGGUGGAUUUUGUUUAUUUUUUUAGCUCAUUUCCAGGGGUGGGAAUUAUUUUUUAAUAUGUGUCAUGAAUAAAGUUGUUUUUGAAA: 0.3
CAAGUCCUGUGCUACACAUCGUAUGUACCGAAUCGGGAAAGGGAAAAAGGGUGGGAAAGUAUUAUGUUACGCCGUUCGGAUCUGCACUUC: 0.859
GUCCUGUGCUACACAUCGUAUGUACCGAAUCGGGGAAAAAGGGAAAAAGGAAAAAGGGAAAGUAUUAUGUUACGCCGUUCGGAUCUGCAC: -0.247
AGUCCUGUGCUACACAUCGUAUGUACCGAAUCAAAUUUAAACCCCCAAACCCCCAAAAAAGUAUUAUGUUACGCCGUUCGGAUCUGCACU: -0.328

Study 2
Target: Interferon regulatory factor 3, full length, phosphomimetic (IRF3, Homo sapiens, UniProt Q14653, residues 1-427, S386D/S396D/S398D/S402D/T404D/S405D)
Technique: protein-binding microarray
Form: double-stranded DNA, one strand shown
Matrix: in vitro
Tested at: 2540 nM top
Setting: 60-bp whole probe
With: salmon DNA 0.4 mg/ml
Reference: random background probes
Reading: higher = stronger binding
Endpoint: fitted relative affinity
All sequences stand within: GCCTAGCAC … GTCTTGATTCGCTTGACGCTGCTG
Target sequence (chain): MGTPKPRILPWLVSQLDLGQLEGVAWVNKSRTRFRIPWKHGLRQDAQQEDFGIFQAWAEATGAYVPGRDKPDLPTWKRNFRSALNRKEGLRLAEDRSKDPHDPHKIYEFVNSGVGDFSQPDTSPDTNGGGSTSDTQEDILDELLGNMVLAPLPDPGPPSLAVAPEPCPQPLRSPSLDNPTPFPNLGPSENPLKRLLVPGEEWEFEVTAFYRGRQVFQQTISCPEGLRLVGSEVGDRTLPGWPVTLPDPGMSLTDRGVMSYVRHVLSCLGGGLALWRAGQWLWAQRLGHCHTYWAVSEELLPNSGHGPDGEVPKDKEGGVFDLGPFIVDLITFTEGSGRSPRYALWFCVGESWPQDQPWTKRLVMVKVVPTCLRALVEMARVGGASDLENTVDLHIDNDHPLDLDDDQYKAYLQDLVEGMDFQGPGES
GACGATGTCGGGTTTCGAGACGTGCTA: 0.697 z-score
ACCACTCTTCCTTTACTTTCGTGCTAG: 1.79 z-score
TTAGATTCCAGTTTGGATTAGTGCTAG: 2.83 z-score
GAAGGTCACAAAGACTTCATGTGCTAG: -0.215 z-score
TCAGTGATAGCTCTGGTACTGTGCTAG: -0.824 z-score
TTAGGTCTCCTTTTCCTTTTGTGCTAG: 6 z-score
GACGGTATCGGTCTCGGGAGGTGCTAG: 4.48 z-score
TTATGACTGGACTTTCGGTTAGTGCTA: 1.19 z-score

Study 3
Organism: SARS-CoV-2
Read-out: cytopathic effect
Cells: Vero E6
Tested at: 10 µM
Endpoint: inhibition
C=C1C(=O)O[C@H]2[C@H]1CC/C(C)=C/CC[C@@]1(C)O[C@@H]21: -43.2%
N[C@@H](C(=O)N[C@@H]1C(=O)N2C(C(=O)O)=C(Cl)CS[C@H]12)c1ccccc1: 6.9%
O=C(/C=C/c1ccc(O)c(O)c1)O[C@H](Cc1ccc(O)c(O)c1)C(=O)O: 8.3% and -4.6%
Oc1c(I)cc(I)c(O)c1I: -1.5%
CO/N=C(\C(=O)N[C@@H]1C(=O)N2C(C(=O)O)=C(CSC(=O)c3ccco3)CS[C@H]12)c1csc(N)n1.Cl: 2.3%

Study 4
Target: Replicase polyprotein 1ab, polymerase (rep, Severe acute respiratory syndrome coronavirus 2, UniProt P0DTD1)
Read-out: enzyme activity
Action: inhibitor
Tested at: 20 µM
Endpoint: inhibition
CC1(C(=O)O)NCCc2cc(O)c(O)cc21 (centres unmarked): -0.55%
Cc1cc2c(OCC(CNC(C)(C)C)OC(=O)c3ccccc3)cccc2[nH]1 (centres unmarked): -0.11%
N[C@@H]1CCN(O)C1=O: 1.95%
O[C@H]1[C@H](O)[C@@H](O)CN2CC[C@H](O)[C@H]12: 0.78%
CCOc1ccc(-c2nc(-c3cccc4c3CCC4NCCO)no2)cc1OCC (centres unmarked): 2.16%
Cc1cc(C)c(S(=O)(=O)n2cc(C)cc2C)c(C)c1: -8.23%
N=C(N)N/N=C/c1c(Cl)cccc1Cl: 12.6%
COc1cc(OCc2cccc(-c3ccccc3)c2C)cc(OC)c1CN1CCCC[C@H]1C(=O)O: 2.25%
Cc1cccc2c1CC[C@H](CN1CCC(c3c(Cl)cccc3Cl)CC1)C[C@@H]2O: 1.4%
Cc1ncc(C[n+]2csc(CCOP(=O)(O)OP(=O)(O)O)c2C)c(N)n1: 3.51%
O=c1ccc2c(OCCCCOc3ccccc3)c3ccoc3cc2o1: 1.69%
Cc1ccc(-c2ccc(C)cn2)nc1: -4.83%
O=[N+]([O-])c1cncn1CCN1CCOCC1: -2.82%
CCOC(=O)n1ccn(C)c1=S: -6.78%
OC[C@@H](O)[C@@H](O)[C@@H](O)CO: -2.37%
O=C1C2CC=CCC2C(=O)N1SC(Cl)(Cl)Cl (centres unmarked): 2.85%
CCc1cccc(CC)c1NC(=O)N1Cc2[nH]nc(NC(=O)c3ccc(N4CCN(C)CC4)cc3)c2C1: 7.49%
C[C@H](N)Cc1cnc[nH]1: 5.02%
CC(C)Nc1cccnc1N1CCN(C(=O)c2cc3cc(NS(C)(=O)=O)ccc3[nH]2)CC1: 4.74%
CN1[C@@H]2CC[C@H]1C[C@@H](OC(=O)c1c[nH]c3ccccc13)C2: 1.71%
CN1[C@@H]2CC[C@H]1C[C@@H](OC(=O)c1cc(Cl)cc(Cl)c1)C2: 18.1%
CCCCS(=O)(=O)N[C@@H](Cc1ccc(OCCCCC2CCNCC2)cc1)C(=O)O: 3.76%
CC/C(=C(/c1ccc(/C=C/C(=O)O)cc1)c1ccc2[nH]ncc2c1)c1ccc(F)cc1Cl: -1.47%
COc1cc(OC)c(/C=C/S(=O)(=O)Cc2ccc(OC)c(OP(=O)(O)O)c2)c(OC)c1: 2.45%
OCc1ccc(CO)o1: -3.02%

Study 5
Cell line: HEK-293T
Organism: VSV pseudotyped with SARS-CoV-2 spike
Tested at: 10 µM
Time: 16 h
Endpoint: pseudovirus infection
Oc1ccc(O)cc1: 90.8%
CCN(CC)CCOC(=O)C1(C2CCCCC2)CCCCC1: 36.9%
O=C(CCCN1CCC(O)(c2ccc(Cl)cc2)CC1)c1ccc(F)cc1: 87.1%
CC(=O)Nc1nnc(S(N)(=O)=O)s1: 92.8%
